{"data": "Measurements pooled from the literature", "note": "Numbered parts are unrelated; each lists some results of a single study.", "UniProt P17948, sequence (whole entry, looked up)": "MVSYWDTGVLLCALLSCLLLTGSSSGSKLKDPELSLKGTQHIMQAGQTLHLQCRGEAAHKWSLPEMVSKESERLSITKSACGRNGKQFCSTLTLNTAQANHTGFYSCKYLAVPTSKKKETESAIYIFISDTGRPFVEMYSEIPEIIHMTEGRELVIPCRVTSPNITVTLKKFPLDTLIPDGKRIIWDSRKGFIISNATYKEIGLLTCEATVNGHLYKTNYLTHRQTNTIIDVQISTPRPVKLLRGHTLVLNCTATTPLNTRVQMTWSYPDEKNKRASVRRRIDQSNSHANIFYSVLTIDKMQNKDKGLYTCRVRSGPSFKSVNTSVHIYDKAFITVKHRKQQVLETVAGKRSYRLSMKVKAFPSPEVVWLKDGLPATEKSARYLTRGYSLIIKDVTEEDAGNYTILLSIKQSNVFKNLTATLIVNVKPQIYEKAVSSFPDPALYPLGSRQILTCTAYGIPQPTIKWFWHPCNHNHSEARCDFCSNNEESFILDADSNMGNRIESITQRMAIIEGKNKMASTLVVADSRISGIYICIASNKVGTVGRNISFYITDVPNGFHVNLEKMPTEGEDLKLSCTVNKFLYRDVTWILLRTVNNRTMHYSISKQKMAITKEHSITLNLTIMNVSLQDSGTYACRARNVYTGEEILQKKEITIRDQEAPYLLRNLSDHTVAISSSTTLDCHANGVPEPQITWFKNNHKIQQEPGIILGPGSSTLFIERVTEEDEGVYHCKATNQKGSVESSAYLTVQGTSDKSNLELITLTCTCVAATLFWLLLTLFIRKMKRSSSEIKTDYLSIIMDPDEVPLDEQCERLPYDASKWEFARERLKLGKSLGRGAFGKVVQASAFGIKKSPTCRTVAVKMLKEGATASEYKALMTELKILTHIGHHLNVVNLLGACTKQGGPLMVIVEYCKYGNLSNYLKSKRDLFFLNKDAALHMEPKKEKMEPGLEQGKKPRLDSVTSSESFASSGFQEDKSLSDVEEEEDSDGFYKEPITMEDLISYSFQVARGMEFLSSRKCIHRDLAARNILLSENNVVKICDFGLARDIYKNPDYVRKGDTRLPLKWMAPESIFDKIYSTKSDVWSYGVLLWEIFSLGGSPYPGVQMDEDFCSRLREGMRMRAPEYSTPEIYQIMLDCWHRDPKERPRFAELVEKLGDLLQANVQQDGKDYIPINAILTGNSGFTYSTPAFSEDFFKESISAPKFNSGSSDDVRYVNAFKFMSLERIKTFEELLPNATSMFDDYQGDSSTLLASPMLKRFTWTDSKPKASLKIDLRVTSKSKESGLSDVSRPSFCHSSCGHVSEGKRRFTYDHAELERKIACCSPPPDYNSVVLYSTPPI", "UniProt Q96SB4, sequence (whole entry, looked up)": "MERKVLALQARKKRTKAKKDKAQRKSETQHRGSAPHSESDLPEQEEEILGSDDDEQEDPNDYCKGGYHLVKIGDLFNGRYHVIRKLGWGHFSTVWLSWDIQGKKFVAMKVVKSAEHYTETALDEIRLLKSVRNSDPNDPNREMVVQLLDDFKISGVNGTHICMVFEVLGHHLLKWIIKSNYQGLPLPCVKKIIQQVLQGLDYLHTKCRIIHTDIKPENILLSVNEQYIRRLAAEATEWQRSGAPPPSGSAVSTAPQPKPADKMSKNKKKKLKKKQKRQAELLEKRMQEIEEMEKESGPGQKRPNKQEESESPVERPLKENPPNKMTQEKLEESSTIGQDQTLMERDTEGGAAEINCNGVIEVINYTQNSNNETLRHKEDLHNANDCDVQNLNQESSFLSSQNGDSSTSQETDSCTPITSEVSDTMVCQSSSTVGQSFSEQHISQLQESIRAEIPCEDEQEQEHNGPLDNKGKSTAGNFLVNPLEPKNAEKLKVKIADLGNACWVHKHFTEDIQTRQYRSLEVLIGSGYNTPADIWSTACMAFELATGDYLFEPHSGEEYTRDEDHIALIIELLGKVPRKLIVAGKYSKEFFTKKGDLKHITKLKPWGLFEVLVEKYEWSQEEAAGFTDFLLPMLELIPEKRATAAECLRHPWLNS", "UniProt Q56UN5, sequence (whole entry, looked up)": "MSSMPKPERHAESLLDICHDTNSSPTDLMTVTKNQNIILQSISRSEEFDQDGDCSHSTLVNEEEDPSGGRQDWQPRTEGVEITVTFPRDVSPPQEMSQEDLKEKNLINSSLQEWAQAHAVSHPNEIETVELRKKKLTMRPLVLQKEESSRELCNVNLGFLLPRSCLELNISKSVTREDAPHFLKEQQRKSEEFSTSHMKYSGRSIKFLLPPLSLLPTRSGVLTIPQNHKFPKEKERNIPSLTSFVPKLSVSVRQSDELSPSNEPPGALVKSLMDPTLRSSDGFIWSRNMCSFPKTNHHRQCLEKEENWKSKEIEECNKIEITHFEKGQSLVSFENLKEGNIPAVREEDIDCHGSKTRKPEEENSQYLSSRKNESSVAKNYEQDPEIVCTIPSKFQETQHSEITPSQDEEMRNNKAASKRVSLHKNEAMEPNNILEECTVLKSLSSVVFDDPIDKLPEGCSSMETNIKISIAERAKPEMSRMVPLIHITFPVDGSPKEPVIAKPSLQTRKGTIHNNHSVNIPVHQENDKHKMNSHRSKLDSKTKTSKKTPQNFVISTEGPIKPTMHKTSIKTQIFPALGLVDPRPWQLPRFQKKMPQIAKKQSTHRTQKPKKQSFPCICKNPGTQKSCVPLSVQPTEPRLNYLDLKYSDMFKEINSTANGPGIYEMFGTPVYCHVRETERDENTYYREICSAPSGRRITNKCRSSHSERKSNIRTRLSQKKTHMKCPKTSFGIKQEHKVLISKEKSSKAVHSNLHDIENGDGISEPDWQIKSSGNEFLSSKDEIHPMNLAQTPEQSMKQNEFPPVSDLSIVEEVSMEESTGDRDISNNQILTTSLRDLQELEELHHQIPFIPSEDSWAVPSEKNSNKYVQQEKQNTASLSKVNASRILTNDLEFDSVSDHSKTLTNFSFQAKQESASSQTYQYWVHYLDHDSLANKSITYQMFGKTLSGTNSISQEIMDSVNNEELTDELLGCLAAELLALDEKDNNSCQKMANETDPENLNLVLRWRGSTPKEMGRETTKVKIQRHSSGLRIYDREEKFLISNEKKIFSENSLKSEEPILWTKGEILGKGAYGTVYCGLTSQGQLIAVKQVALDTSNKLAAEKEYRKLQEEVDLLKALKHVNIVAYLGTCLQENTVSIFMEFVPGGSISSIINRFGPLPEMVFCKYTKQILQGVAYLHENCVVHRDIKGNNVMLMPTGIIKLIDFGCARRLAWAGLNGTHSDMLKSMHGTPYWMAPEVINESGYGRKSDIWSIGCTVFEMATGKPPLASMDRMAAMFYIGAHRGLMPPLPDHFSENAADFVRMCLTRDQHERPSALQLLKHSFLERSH", "UniProt Q92918, sequence (whole entry, looked up)": "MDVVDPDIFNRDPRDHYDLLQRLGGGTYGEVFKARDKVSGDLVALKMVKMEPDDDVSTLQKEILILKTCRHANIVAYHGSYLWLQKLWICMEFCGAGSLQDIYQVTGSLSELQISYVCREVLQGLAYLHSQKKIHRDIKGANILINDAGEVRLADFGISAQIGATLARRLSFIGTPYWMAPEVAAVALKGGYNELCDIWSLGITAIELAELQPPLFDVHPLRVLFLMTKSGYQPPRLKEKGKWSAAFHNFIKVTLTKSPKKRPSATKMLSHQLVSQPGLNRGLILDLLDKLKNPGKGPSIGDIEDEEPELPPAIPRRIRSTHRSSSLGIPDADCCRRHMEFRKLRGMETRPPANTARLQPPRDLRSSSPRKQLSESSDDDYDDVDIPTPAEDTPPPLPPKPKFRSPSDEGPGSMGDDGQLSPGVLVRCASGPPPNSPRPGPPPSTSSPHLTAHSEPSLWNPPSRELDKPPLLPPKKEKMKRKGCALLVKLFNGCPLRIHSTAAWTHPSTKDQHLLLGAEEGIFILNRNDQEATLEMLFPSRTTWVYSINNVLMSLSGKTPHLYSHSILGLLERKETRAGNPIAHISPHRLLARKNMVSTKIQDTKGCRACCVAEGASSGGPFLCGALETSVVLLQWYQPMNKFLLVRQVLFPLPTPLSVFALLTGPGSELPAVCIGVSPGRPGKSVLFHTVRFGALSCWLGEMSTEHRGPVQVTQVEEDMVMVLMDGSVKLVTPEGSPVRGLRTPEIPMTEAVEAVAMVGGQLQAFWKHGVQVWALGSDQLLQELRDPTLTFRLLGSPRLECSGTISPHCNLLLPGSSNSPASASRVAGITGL"}
{"data": "Block 1", "Molecule": "B1 (IAA5)", "method": "two-hybrid", "direction": "higher = firmer interaction", "B1": "IAA5 (Arabidopsis thaliana, UniProt P33078); chain MANESNNLGLEITELRLGLPGDIVVSGESISGKKRASPEVEIDLKCEPAKKSQVVGWPPVCSYRRKNSLERTKSSYVKVSVDGAAFLRKIDLEMYKCYQDLASALQILFGCYINFDDTLKESECVPIYEDKDGDWMLAGDVPWEMFLGSCKRLRIMKRSCNRG"}
{"partner": "ARF6 790-935 (Arabidopsis thaliana, UniProt Q9ZTX8)", "baseline": "out of 2 tests", "positive tests": 1}
{"partner": "IAA26 (Arabidopsis thaliana, UniProt Q8LAL2)", "baseline": "out of 4 tests", "positive tests": 1}
{"partner": "ARF5 788-902 (Arabidopsis thaliana, UniProt P93024)", "baseline": "out of 3 tests", "positive tests": 2}
{"partner": "IAA6 (Arabidopsis thaliana, UniProt Q38824)", "baseline": "out of 4 tests", "positive tests": 0}
{"partner": "IAA16 (Arabidopsis thaliana, UniProt O24407)", "baseline": "out of 4 tests", "positive tests": 3}
{"partner": "IAA32 (Arabidopsis thaliana, UniProt Q8RYC6)", "baseline": "out of 4 tests", "positive tests": 2}
{"partner": "IAA14 (Arabidopsis thaliana, UniProt Q38832)", "baseline": "out of 4 tests", "positive tests": 4}
{"partner": "IAA8 (Arabidopsis thaliana, UniProt Q38826)", "baseline": "out of 4 tests", "positive tests": 4}
{"data": "Block 2", "target": "Transcription factor Sp1 (SP1, Homo sapiens, UniProt P08047, residues 1-785, full length assumed)", "method": "protein-binding microarray", "form": "double-stranded DNA, one strand shown", "sample": "in vitro", "tested at": "not given", "notes": "k-mer, scored over probes, only values ≥0.25", "direction": "higher = stronger binding", "UniProt P08047, sequence (whole entry, looked up)": "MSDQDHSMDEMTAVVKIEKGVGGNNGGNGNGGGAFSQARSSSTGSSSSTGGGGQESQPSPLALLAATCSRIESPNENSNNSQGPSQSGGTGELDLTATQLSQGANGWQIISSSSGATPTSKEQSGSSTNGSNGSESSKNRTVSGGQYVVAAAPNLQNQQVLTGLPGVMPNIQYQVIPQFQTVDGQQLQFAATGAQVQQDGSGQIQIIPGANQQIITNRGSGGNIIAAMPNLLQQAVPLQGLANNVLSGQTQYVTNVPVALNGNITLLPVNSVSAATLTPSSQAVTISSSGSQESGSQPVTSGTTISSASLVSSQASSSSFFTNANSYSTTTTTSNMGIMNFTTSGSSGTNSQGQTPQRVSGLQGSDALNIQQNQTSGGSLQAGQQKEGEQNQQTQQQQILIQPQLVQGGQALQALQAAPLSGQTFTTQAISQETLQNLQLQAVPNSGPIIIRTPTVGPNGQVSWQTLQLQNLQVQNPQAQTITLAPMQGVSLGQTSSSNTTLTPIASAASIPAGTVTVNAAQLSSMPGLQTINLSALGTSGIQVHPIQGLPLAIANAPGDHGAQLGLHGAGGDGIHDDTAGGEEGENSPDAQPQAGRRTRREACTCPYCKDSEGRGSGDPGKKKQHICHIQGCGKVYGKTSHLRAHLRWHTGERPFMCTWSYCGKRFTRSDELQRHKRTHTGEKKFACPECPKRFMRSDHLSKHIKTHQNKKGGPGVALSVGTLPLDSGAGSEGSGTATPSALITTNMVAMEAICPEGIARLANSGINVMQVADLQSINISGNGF"}
{"Sequence": "AGATACAC", "E-score": 0.304}
{"Sequence": "CACACCCA", "E-score": 0.386}
{"Sequence": "GGCGGGGA", "E-score": 0.475}
{"Sequence": "ATGTGTAA", "E-score": 0.299}
{"Sequence": "ATTCCCCA", "E-score": 0.308}
{"Sequence": "AAGGGGCT", "E-score": 0.332}
{"Sequence": "CAGTATAA", "E-score": 0.253}
{"Sequence": "GTGGGGAA", "E-score": 0.371}
{"data": "Block 3", "SMILES": "O=C1NC(=O)c2c1c1c3ccccc3[nH]c1c1[nH]c3cc(Br)ccc3c21", "effect on": "enzyme activity", "action": "inhibitor", "tested at": "0.5 µM", "baseline": "control"}
{"target": "EPHA2 (Homo sapiens, UniProt P29317)", "remaining activity [%]": 99.2}
{"target": "RPS6KA3 (Homo sapiens, UniProt P51812)", "remaining activity [%]": 46.3}
{"target": "IGF1R (Homo sapiens, UniProt P08069)", "remaining activity [%]": 15}
{"target": "CSNK1E (Homo sapiens, UniProt P49674)", "remaining activity [%]": 82.2}
{"target": "TYRO3 (Homo sapiens, UniProt Q06418)", "remaining activity [%]": 89.7}
{"target": "CSNK1D (Homo sapiens, UniProt P48730)", "remaining activity [%]": 96.9}
{"target": "MAP3K20 (Homo sapiens, UniProt Q9NYL2)", "remaining activity [%]": 88.8}
{"target": "Cyclin-dependent kinase 2, with cyclin E (CDK2, Homo sapiens, UniProt P24941)", "remaining activity [%]": 74.9}
{"target": "FLT1 (Homo sapiens, UniProt P17948)", "remaining activity [%]": 56.5}
{"target": "PAK6 (Homo sapiens, UniProt Q9NQU5)", "remaining activity [%]": 97.7}
{"target": "SRPK1 (Homo sapiens, UniProt Q96SB4)", "remaining activity [%]": 86.4}
{"target": "CLK1 (Homo sapiens, UniProt P49759)", "remaining activity [%]": 97}
{"target": "CAMK1 (Homo sapiens, UniProt Q14012)", "remaining activity [%]": 99}
{"target": "PRKCQ (Homo sapiens, UniProt Q04759)", "remaining activity [%]": 93.1}
{"target": "JAK1 (Homo sapiens, UniProt P23458)", "remaining activity [%]": 110}
{"target": "SGK2 (Homo sapiens, UniProt Q9HBY8)", "remaining activity [%]": 68.5}
{"data": "Block 4", "SMILES": "CCCOc1ccc([C@H]2[C@H](C(=O)O)[C@@H](c3ccc4c(c3)OCO4)CN2CC(=O)Nc2c(CC)cccc2CC)cc1", "method": "competition with immobilised ligand", "tested at": "1 µM"}
{"target": "Ribosomal protein S6 kinase alpha-6, C-terminal kinase domain (RPS6KA6, Homo sapiens, UniProt Q9UK32)", "effect on": "cell-free assay", "remaining binding [%]": 77}
{"target": "MAP3K19 (Homo sapiens, UniProt Q56UN5)", "effect on": "cell-free assay", "remaining binding [%]": 77}
{"target": "EIF2AK1 (Homo sapiens, UniProt Q9BQI3)", "effect on": "cell-free assay", "remaining binding [%]": 84}
{"target": "PTK2 (Homo sapiens, UniProt Q05397)", "effect on": "cell-free assay", "remaining binding [%]": 86}
{"target": "FLT1 (Homo sapiens, UniProt P17948)", "effect on": "cell-free assay", "remaining binding [%]": 97}
{"target": "MAP4K1 (Homo sapiens, UniProt Q92918)", "effect on": "cell-free assay", "remaining binding [%]": 92}
{"target": "Aurora kinase C (AURKC, Homo sapiens, UniProt Q9UQB9)", "effect on": "cell-free assay", "remaining binding [%]": 91}
{"target": "PIP4K2C (Homo sapiens, UniProt Q8TBX8)", "effect on": "cell-free assay", "remaining binding [%]": 49}
{"target": "MINK1 (Homo sapiens, UniProt Q8N4C8)", "effect on": "cell-free assay", "remaining binding [%]": 68}
{"target": "PRKG2 (Homo sapiens, UniProt Q13237)", "effect on": "cell-free assay", "remaining binding [%]": 82}
{"target": "Myosin-IIIb (MYO3B, Homo sapiens, UniProt Q8WXR4)", "effect on": "binding", "remaining binding [%]": 66}
{"target": "LATS2 (Homo sapiens, UniProt Q9NRM7)", "effect on": "cell-free assay", "remaining binding [%]": 97}
{"target": "MAP3K15 (Homo sapiens, UniProt Q6ZN16)", "effect on": "cell-free assay", "remaining binding [%]": 73}
{"target": "ALK (Homo sapiens, UniProt Q9UM73, L1196M)", "effect on": "cell-free assay", "remaining binding [%]": 91}
{"target": "MAP3K12 (Homo sapiens, UniProt Q12852)", "effect on": "cell-free assay", "remaining binding [%]": 52}
{"note": "Excerpt of the above (block 1):"}
{"partner": "IAA26 (Arabidopsis thaliana, UniProt Q8LAL2)", "baseline": "out of 4 tests", "positive tests": 1}
{"partner": "ARF5 788-902 (Arabidopsis thaliana, UniProt P93024)", "baseline": "out of 3 tests", "positive tests": 2}
{"partner": "IAA6 (Arabidopsis thaliana, UniProt Q38824)", "baseline": "out of 4 tests", "positive tests": 0}
{"partner": "IAA16 (Arabidopsis thaliana, UniProt O24407)", "baseline": "out of 4 tests", "positive tests": 3}
{"partner": "IAA32 (Arabidopsis thaliana, UniProt Q8RYC6)", "baseline": "out of 4 tests", "positive tests": 2}
